Experimental data from different studies.
Compare with care: the assays were run in different laboratories. Values joined by “and” are separate records of one study, mostly repeats; a detail may differ. ± marks the error that the study gave.
Moesin with CD44: Moesin, with CD44 (Homo sapiens, UniProt P26038)
ESR1: Estrogen receptor (ESR1, Homo sapiens, UniProt P03372)
Tubulin alpha/beta heterodimer: Tubulin alpha/beta heterodimer (Leishmania infantum, UniProt A0A381MCS3+A4HTR0)
IDO1: Indoleamine 2,3-dioxygenase 1 (IDO1, Homo sapiens, UniProt P14902)
Grm2: Metabotropic glutamate receptor 2 (Grm2, Rattus norvegicus, UniProt P31421)

Protein sequences, listed by entry. Tags and fused reporters are not part of them. Residues count along the entry.
UniProt P03372, whole entry: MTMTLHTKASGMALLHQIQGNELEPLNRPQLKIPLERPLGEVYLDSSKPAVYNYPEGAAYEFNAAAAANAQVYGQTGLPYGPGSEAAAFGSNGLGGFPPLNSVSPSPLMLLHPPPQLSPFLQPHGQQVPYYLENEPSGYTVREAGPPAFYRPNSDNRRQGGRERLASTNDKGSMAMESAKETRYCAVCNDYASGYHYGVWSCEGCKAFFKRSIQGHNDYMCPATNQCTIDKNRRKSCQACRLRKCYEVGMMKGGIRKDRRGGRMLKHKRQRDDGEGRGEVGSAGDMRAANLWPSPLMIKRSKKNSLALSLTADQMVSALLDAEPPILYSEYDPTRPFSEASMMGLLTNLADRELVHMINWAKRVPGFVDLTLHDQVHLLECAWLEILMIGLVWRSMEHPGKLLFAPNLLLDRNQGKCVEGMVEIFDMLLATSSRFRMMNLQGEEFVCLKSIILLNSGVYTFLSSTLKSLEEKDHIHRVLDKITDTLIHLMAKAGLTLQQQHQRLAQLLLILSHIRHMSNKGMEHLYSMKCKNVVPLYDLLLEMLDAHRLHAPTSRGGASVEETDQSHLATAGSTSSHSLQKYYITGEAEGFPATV
UniProt A4HTR0, 1-443: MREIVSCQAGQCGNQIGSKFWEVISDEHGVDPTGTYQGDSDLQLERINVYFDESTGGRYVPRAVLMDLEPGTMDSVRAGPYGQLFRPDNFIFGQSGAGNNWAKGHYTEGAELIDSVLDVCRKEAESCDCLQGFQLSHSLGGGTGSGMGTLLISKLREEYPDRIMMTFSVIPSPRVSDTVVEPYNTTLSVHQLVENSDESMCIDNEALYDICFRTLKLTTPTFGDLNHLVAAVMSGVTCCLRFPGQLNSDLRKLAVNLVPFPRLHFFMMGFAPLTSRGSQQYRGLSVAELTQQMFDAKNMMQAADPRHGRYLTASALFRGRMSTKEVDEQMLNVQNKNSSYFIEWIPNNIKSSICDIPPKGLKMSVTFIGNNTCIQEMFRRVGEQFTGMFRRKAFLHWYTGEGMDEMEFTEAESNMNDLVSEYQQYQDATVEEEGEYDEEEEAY
UniProt P14902, whole entry: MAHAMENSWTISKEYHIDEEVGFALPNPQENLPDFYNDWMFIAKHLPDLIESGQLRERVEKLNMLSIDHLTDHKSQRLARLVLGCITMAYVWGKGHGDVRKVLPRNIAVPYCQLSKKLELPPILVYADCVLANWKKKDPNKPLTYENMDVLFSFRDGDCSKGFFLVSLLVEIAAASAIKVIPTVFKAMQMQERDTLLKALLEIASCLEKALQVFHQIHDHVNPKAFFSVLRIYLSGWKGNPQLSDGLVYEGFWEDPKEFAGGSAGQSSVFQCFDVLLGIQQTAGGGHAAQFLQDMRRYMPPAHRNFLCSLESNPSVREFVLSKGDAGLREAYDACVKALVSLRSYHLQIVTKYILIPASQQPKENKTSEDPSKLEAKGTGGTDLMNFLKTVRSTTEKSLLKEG
UniProt P14902, 12-403 limits assumed: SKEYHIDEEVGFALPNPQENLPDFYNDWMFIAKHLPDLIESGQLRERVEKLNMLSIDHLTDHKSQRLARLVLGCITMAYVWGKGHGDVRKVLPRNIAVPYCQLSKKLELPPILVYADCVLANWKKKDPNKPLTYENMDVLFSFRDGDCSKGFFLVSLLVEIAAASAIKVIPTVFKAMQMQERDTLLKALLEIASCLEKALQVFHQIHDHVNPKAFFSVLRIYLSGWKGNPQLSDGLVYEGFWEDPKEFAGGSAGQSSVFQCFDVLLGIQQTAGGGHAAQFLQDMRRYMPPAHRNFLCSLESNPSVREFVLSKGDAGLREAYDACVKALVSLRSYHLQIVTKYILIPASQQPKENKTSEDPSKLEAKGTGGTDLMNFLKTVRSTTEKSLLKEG
UniProt O60488, whole entry, looked up: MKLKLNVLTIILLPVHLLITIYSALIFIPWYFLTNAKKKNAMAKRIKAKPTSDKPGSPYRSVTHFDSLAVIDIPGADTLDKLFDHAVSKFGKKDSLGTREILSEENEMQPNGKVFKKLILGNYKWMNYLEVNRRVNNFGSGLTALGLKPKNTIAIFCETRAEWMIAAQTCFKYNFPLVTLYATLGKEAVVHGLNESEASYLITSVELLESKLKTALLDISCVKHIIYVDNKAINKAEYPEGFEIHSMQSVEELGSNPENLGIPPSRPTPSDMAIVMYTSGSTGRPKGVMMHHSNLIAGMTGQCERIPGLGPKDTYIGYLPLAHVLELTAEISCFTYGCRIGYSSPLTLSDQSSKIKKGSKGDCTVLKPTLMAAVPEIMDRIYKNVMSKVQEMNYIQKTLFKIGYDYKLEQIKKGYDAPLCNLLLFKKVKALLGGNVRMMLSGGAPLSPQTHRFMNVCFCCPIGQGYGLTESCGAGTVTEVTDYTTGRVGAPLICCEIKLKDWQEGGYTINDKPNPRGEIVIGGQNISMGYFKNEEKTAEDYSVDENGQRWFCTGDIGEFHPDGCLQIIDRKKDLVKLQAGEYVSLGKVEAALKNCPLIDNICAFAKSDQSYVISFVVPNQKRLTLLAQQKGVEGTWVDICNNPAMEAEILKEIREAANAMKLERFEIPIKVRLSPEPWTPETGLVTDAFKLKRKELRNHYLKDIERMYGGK
UniProt P50750, whole entry: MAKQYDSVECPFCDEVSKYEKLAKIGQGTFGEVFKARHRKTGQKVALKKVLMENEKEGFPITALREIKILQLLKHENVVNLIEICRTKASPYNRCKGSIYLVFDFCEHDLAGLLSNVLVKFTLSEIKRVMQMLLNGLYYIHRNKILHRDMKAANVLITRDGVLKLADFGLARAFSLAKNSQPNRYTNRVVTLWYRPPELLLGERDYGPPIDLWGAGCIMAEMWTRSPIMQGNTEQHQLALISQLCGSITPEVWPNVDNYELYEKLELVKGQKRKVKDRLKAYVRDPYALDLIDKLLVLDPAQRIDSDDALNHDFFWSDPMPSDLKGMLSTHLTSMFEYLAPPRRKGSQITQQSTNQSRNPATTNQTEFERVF
UniProt P08253, 110-660 limits assumed: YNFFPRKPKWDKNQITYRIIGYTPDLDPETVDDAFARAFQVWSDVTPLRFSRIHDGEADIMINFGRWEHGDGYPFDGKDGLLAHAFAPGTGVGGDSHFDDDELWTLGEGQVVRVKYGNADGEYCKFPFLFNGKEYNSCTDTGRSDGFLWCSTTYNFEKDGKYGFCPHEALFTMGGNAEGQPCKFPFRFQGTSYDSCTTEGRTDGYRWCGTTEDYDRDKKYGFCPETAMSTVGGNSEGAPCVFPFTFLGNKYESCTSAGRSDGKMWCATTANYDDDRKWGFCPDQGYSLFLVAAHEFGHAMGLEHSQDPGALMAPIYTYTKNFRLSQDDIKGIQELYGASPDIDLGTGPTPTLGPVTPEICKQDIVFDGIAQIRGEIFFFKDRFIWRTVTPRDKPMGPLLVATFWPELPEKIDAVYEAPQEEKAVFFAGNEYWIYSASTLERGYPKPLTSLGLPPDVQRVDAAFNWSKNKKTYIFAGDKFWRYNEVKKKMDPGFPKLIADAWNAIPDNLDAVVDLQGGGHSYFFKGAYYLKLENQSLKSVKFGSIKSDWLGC
UniProt P05067, 672-713 limits assumed: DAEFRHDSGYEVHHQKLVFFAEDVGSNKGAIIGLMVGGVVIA
UniProt Q00960, 27-1482 limits assumed: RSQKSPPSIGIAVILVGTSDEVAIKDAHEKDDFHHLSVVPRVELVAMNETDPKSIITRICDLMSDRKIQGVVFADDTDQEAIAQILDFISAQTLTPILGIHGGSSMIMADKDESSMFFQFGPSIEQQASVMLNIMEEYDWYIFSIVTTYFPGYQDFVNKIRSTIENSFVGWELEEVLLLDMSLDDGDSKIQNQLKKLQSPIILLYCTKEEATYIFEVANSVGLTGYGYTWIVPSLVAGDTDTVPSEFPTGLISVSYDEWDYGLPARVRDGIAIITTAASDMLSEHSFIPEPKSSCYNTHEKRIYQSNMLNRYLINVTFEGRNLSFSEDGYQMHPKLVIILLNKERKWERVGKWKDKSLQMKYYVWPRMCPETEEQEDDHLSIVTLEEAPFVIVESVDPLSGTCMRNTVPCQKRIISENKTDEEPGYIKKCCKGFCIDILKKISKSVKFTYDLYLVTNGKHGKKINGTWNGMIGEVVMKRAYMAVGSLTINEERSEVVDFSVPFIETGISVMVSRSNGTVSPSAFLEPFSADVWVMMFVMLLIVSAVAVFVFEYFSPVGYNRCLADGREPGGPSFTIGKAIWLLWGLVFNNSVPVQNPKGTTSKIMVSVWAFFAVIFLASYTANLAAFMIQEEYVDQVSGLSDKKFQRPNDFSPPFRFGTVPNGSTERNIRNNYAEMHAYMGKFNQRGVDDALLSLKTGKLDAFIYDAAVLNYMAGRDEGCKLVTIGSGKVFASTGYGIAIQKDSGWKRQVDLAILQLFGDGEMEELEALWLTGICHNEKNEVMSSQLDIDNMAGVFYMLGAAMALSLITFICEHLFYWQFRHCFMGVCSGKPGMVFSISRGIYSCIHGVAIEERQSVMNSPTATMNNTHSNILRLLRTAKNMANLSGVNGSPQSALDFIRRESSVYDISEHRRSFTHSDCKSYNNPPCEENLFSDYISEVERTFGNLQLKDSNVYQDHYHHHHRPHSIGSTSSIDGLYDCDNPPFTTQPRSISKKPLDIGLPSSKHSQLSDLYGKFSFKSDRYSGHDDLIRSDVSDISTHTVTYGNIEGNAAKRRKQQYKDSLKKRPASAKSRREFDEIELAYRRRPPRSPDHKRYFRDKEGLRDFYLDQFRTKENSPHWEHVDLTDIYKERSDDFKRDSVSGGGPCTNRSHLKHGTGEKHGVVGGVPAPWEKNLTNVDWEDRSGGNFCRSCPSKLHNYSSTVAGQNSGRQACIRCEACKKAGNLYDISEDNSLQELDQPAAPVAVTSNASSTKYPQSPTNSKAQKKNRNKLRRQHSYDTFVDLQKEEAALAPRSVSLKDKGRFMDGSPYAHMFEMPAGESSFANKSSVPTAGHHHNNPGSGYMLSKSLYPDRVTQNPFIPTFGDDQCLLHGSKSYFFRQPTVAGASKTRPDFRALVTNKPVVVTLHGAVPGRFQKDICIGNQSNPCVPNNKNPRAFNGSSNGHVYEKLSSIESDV
UniProt P41247, whole entry: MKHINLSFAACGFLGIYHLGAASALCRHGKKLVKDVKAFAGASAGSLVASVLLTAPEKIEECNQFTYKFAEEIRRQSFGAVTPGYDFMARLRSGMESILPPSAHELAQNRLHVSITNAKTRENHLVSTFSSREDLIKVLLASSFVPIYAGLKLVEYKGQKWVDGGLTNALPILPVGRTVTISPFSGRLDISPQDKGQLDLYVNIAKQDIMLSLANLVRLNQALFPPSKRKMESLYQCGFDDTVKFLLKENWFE
UniProt Q9BV23, whole entry: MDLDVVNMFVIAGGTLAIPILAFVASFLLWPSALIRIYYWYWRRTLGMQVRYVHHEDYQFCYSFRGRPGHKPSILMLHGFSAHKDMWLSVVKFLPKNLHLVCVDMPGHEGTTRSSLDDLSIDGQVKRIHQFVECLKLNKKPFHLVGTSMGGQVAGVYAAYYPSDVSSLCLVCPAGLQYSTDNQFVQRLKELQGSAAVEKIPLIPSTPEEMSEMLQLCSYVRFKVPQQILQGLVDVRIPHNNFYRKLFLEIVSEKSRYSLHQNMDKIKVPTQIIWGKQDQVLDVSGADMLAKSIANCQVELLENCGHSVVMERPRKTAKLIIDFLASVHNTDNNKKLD
UniProt Q07440, whole entry P104K/C113S, looked up: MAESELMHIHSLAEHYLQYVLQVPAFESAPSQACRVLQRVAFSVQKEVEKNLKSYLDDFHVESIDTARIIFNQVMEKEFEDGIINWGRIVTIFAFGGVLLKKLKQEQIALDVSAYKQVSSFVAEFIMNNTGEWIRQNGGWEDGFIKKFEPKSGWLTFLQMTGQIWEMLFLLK
UniProt O96017, whole entry: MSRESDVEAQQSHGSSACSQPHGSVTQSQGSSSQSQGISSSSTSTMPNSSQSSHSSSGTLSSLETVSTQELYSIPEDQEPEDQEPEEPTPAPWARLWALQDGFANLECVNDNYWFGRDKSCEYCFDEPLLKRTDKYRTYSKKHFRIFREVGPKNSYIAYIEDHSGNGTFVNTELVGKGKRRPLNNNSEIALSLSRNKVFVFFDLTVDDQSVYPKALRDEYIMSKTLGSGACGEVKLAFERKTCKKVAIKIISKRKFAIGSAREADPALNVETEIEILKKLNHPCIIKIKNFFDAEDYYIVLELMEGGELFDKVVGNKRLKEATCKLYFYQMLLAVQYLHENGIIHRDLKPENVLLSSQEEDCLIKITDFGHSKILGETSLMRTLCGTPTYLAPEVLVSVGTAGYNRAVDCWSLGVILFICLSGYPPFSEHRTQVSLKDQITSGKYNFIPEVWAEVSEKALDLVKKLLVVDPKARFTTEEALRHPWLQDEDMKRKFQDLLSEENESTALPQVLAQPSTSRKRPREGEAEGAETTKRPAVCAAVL
UniProt Q9H2K8, 1-319 limits assumed: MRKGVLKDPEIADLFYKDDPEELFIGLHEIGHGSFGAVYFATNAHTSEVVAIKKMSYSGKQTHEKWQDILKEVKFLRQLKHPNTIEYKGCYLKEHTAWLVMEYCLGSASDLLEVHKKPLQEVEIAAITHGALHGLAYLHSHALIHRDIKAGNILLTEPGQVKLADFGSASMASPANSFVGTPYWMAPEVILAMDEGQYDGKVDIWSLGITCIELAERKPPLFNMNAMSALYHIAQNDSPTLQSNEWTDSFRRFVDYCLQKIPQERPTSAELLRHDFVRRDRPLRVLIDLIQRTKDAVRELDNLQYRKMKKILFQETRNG

Compound	target	test	test system	setting	IC50
COc1ccccc1C(=O)Nc1ccc(-c2nc3ccccc3s2)cc1	Moesin with CD44	MSN-CD44 interaction, inhibitor, TR-FRET		with: CD44	> 100000 nM
O=C(CSc1ccc(Br)cc1)Nc1ccc2nc(SCC(=O)NC3CC3)sc2c1	ESR1	reporter gene, antagonist	HEC-1 transfected ERα luciferase reporter		20000 to 50000 nM
O=Cc1c(O)c2c(c3c1CC(O)OC3=O)CCC2 (stereo not shown)	14 kDa phosphohistidine phosphatase (Homo sapiens, UniProt Q9NRX4)			with: DiFMUP substrate	3400 ± 700 nM
Nc1nccc(-c2ccc(C3(c4ccc(Cl)cc4)CCNCC3)cc2)n1	RAC-alpha serine/threonine-protein kinase (AKT1, Homo sapiens, UniProt P31749)	kinase activity, inhibitor, radiometric HotSpot		with: ATP 10 µM	21 nM
COC(=O)[C@@H]1C(C=Nc2nccs2)=Cc2cc3c(cc2[C@H]1c1cc(OC)c(OC)c(OC)c1)OCO3	Tubulin alpha/beta heterodimer	tubulin polymerization, inhibitor		37 °C, with: tubulin 1.2 mg/mL	9000 ± 800 nM
CN(CCCOc1ccc(CC2SC(=O)NC2=O)cc1)c1ccccn1 (stereo not shown)	Long-chain-fatty-acid--CoA ligase 4 (ACSL4, Homo sapiens, UniProt O60488)	enzyme activity, inhibitor, EnzChek pyrophosphate			2400 ± 500 nM
C=Cc1cccc(-c2cc(=O)c3c(O)cc(O)c([C@H]4CCN(C)C[C@H]4O)c3o2)c1	Cyclin-dependent kinase 9, with cyclin T1 (CDK9, Homo sapiens, UniProt P50750)	inhibitor		with cyclin T1, GST-CTD substrate	9.9 nM
O=C(CCCn1c(=S)[nH]c2ccccc2c1=O)N1CCN(c2cccc(Cl)c2)CC1	ESR1	reporter gene, coactivator binding inhibitor, luciferase reporter	HEC-1 cells transfected with ERα	partial inhibition, with: estradiol 1 nM	14800 nM
CCOC(=O)c1nc2cc(Cl)c(Cl)cc2nc1N1CCN(C(=O)Nc2ccc(F)cc2)CC1	Phosphoglycerate kinase 1 (PGK1, Homo sapiens, UniProt P00558)	enzyme activity, inhibitor, GAPDH-coupled		with: ATP 1.5 mM, 3-phosphoglycerate 2 mM	320 ± 60 nM
O=C(Nc1cccc(-c2nc3ccccc3s2)c1)c1ccc(N2CCOCC2)cc1	Moesin with CD44	MSN-CD44 interaction, inhibitor, TR-FRET		with: CD44	> 100000 nM
CN1C(=S)Cc2ccccc21	72 kDa type IV collagenase (MMP2, Homo sapiens, UniProt P08253)	inhibitor			103000 ± 10600 nM
CCn1c(=Cc2cccc[n+]2C)sc(=C2Sc3ccccc3N2C)c1=O	Heat shock 70 kDa protein 1A, with BAG2 (HSPA1A, Homo sapiens, UniProt P0DMV8)	Hsp70-Bag2 interaction, inhibitor, flow cytometry (FCPIA)		with: labeled Bag2 50 nM	39000 ± 4000 nM
O=C(/C=C/c1ccc(O)c(OC(F)(F)F)c1)C(CCOCCOC1CCCCO1)C(=O)/C=C/c1ccc(O)c(OC(F)(F)F)c1 (stereo not shown)	Amyloid-beta precursor protein, Aβ aggregates (APP, Homo sapiens, UniProt P05067)	binding, thioflavin T competition			650 nM
COc1ccc2[nH]cc(/C=C/c3ccc([N+](=O)[O-])cc3F)c2c1	IDO1	enzyme activity, inhibitor			> 100000 nM
CCN1c2ccccc2C(=O)N(C)c2cnc(Nc3ccc(C(=O)N4CCC(N5CCN(C)CC5)CC4)cc3OC)nc21	Mitogen-activated protein kinase 7 (MAPK7, Homo sapiens, UniProt Q13164)	kinase activity			173 ± 37 nM
CCN(CCc1ccc(Cl)c(Cl)c1)C[C@H](O)COc1ccc(NS(C)(=O)=O)cc1	Glutamate NMDA receptor; Grin1/Grin2b (Grin1/Grin2b, Rattus norvegicus, UniProt P35439+Q00960)			pH 7.6	67 nM
O=C(O)c1cc(C(=O)N[C@@H](CS)C(=O)O)cc([C@H]2CCN[C@@H]2C(=O)O)c1	AMPA receptor (rat)	binding, radioligand binding	rat cortical synaptosomes	with: [3H]AMPA	10000 to 50000 nM
CN1CCN(Cc2ccc(NC(=O)c3cncc(C#Cc4c(N)ncc5ccc(F)cc45)c3)cc2C(F)(F)F)CC1	Kinesin-1 heavy chain/ Tyrosine-protein kinase receptor RET (RET/KIF5B, Homo sapiens, UniProt P07949+P33176, G810A)	cell viability, inhibitor, CellTiter-Glo	Ba/F3 KIF5B-RET G810A		2.85 ± 0.1 nM
COc1ccc(-c2nc(S(C)(=O)=O)nn2-c2ccc(OC)cc2)cc1	Prostaglandin G/H synthase 1 (Macaca mulatta, UniProt F6S984)	thromboxane B2 production, inhibitor, enzyme immunoassay	monkey whole blood		11 ± 1 nM
O=C(Nc1ccc(-c2nc3ccc(NC(=O)C4CCCC4)cc3s2)cc1)C1CCCC1	Tyrosine-protein kinase SYK, with FCER1G (SYK, Homo sapiens, UniProt P43405)	protein binding, inhibitor, TR-FRET			> 100000 nM
CN(Cc1cccnc1)c1ccc2c(c1)c(=O)c(C(N)=O)cn2-c1ccc(F)cc1	Grm2	calcium mobilization, negative allosteric modulator			201 nM
COc1ccc2c(c1)S(=O)(=O)N(CCCCCc1ccccc1)C(=O)O2	Patatin-like phospholipase domain-containing protein 4 (PNPLA4, Homo sapiens, UniProt P41247)	enzyme activity, inhibitor, gel-based ABPP	membrane fraction of overexpressing HEK cells		1800 nM
CCn1cc(NCc2ccccc2)c(C(=O)O)n1	IDO1				~300000 nM
CN(C(=O)CSc1nnc(Nc2ccccc2F)s1)c1ccccc1	CD28, with CD80 (Homo sapiens, UniProt P10747)	CD28–CD80 binding, inhibitor, competitive ELISA		with: biotinylated CD80	45200 nM
CC(C)NC(=O)CSc1nc2ccc(NC(=O)CSc3ccc(Br)cc3)cc2s1	ESR1	reporter gene, antagonist	HEC-1 transfected ERα luciferase reporter		20000 to 50000 nM
COc1ccc2nc3ccc(C)cc3c(SCCCN)c2c1	Serine/threonine-protein kinase haspin (HASPIN, Homo sapiens, UniProt Q8TF76)	inhibitor, TR-FRET		with: histone H3 peptide	70 nM
COc1cc2c(cc1OC)C(=O)C(=Cc1ccccc1OC(=O)N(C)C)C2	Cocaine esterase (CES2, Homo sapiens, UniProt O00748)	inhibitor		33 min preincubation, with: fluorescein diacetate	1.74 ± 0.1 nM
O=C(N1CCN(c2ccc([N+](=O)[O-])c3ncccc23)CC1)C12CC3CC(CC(Br)(C3)C1)C2	Toll-like receptor 8 (TLR8, Homo sapiens, UniProt Q9NR97)	reporter gene, inhibitor, SEAP reporter	HEK-Blue TLR8		3890 ± 780 nM

Compound	target	test	test system	setting	IC50
O=C(O)c1ccc(NC(=O)C(NS(=O)(=O)c2cccs2)c2ccccc2)cc1Cl (stereo not shown)	Uracil nucleotide/cysteinyl leukotriene receptor, long isoform (GPR17, Homo sapiens, UniProt Q13304)	calcium mobilization, antagonist	1321-N1		4650 ± 540 nM
CC(C)[C@H](NC(=O)c1cc(C(=O)O)cc([C@H]2CCN[C@@H]2C(=O)O)c1)C(=O)O	kainate receptor (rat)	binding, radioligand binding	rat cortical synaptosomes	with: [3H]kainate	27000 nM
C[C@@H]1CN(c2c(C#N)c(=O)n(C)c3ccccc23)[C@@H](C)CN1Cc1cn(S(=O)(=O)c2ccccc2)nn1	Diacylglycerol kinase alpha (DGKA, Homo sapiens, UniProt P23743)	enzyme activity, inhibitor, ADP-Glo		with: DAG micelles	1890 nM
COc1ccc2c(c1)CN(C(=O)OC(C(F)(F)F)C(F)(F)F)C2	Monoacylglycerol lipase ABHD6 (ABHD6, Homo sapiens, UniProt Q9BV23)	inhibitor, fluorescence			8 nM and 8.3 nM
N#Cc1cnc(Nc2nc3ccccc3o2)nc1-c1ccc(Cl)cc1	Metabotropic glutamate receptor 5 (Grm5, Rattus norvegicus, UniProt P31424)	calcium mobilization, negative allosteric modulator		with: glutamate EC80	315 ± 110 nM
CN1CCN(c2cc(C(=O)Nc3ccc4c(c3)-c3c(c(C(N)=O)nn3-c3ccc(F)cc3)CC4)c(Cl)cn2)CC1	Inhibitor of nuclear factor kappa-B kinase subunit beta (IKBKB, Homo sapiens, UniProt O14920)	kinase activity, inhibitor	stimulated RASF cell lysate	1 h, with: IL-1β stimulation	30 to 60 nM
Cc1cc(S(=O)(=O)O)ccc1N=Nc1c(O)ccc2ccccc12	Bcl-2-related protein A1 (Mus musculus, UniProt Q07440, C113S/P104K)	binding, fluorescence polarization		with: FITC-Noxa peptide	55000 nM
Cc1ccccc1CN1CCN(c2cc(N3CCCC3)nc(N3CCCC3)n2)CC1	Caspase-1 (CASP1, Homo sapiens, UniProt P29466)	enzyme activity, inhibitor		30 min preincubation, with: Ac-WEHD-AMC 10 µM	18 nM
CCOc1ccc(Nc2nc(-c3sc(N)nc3C)cs2)cc1	Protein-lysine 6-oxidase (Homo sapiens, UniProt P28300)	LOX activity, inhibitor	MDA-MB-231		> 10000 nM and 12500 nM
O=C(N/N=C/c1ccc(Sc2ccccn2)s1)c1cccc(Cl)c1	Protein phosphatase EYA2 (Homo sapiens, UniProt O00167)	tyrosine phosphatase activity, inhibitor			280 nM
CC(C)[C@H](N)c1nc2cc(-c3ccncc3)sc2c(=O)[nH]1	Cell division cycle 7-related protein kinase (CDC7, Homo sapiens, UniProt O00311)	enzyme activity, inhibitor			29.8 ± 1.49 nM
COc1ccc2[nH]cc(/C=C/c3cccc(OS(C)(=O)=O)c3)c2c1	IDO1	enzyme activity, inhibitor			> 50000 nM
NC(=O)c1cn(-c2ccc(F)cc2)c2ccc(CCc3ccncc3)cc2c1=O	Grm2	calcium mobilization, negative allosteric modulator			471 nM
CC(=NNC(=N)N)c1ccc2[nH]c(C(=O)Nc3ccc4cc[nH]c4c3)cc2c1	Serine/threonine-protein kinase Chk2 (CHEK2, Homo sapiens, UniProt O96017)	kinase activity, inhibitor, IMAP fluorescence polarization			12.7 ± 11.9 nM
O=C1Nc2cccc(C#CC3(O)CCNCC3)c2/C1=C/c1cc2ccccc2[nH]1	Serine/threonine-protein kinase TAO3 (TAOK3, Homo sapiens, UniProt Q9H2K8)	enzyme activity, TR-FRET HTRF KinEASE			42 nM
N#Cc1ccccc1N1CCN(C(=O)CCCCCn2c(=S)[nH]c3ccccc3c2=O)CC1	ESR1	reporter gene, antagonist	HEC-1 cells transfected with ERα	with: estradiol 1 nM	3500 nM
CC(=O)Nc1ccc(/C=C/c2c[nH]c3ccc(C#N)cc23)cc1	IDO1	enzyme activity, inhibitor			5200 nM
O=C(Nc1cccc(F)c1)c1cc(S(=O)(=O)N2CCOCC2)c(Cl)cc1Cl	Autotaxin (ENPP2, Homo sapiens, UniProt Q13822, F275A)	enzyme activity, inhibitor		with: FS-3	> 3000 nM
COc1ccc2[nH]cc(CCc3ccncc3)c2c1	IDO1	enzyme activity, inhibitor			> 50000 nM
CN1CC[C@H](c2c(O)cc(O)c3c(=O)cc(-c4cccnc4)oc23)[C@H](O)C1	Cyclin-dependent kinase 2, part with cyclin A (CDK2, Homo sapiens, UniProt P24941)	enzyme activity, inhibitor		with cyclin A, with: histone H1 substrate	247 nM
COc1ccc(CC(=O)OCc2ccc(-n3cccn3)cc2)cc1F	CD28, with B7 (Homo sapiens, UniProt P10747)	luciferase reporter gene, blocker	Jurkat with Raji cells	5 h	10300 ± 3300 nM
CSc1cc(NC(=O)c2ccccn2)ccc1Cl	Metabotropic glutamate receptor 6 (Homo sapiens, UniProt O15303)	antagonist			> 30000 nM
COc1cc([C@@H]2c3cc4c(cc3C=C(C=O)[C@H]2C(=O)OCCCBr)OCO4)cc(OC)c1OC	Tubulin alpha/beta heterodimer	tubulin polymerization, inhibitor		37 °C, with: tubulin 1.2 mg/mL	1700 ± 100 nM
Oc1ccccc1C1=NCCCO1	Adenosine deaminase (ADA, Bos taurus, UniProt P56658)	enzyme activity		25 °C	> 700000 nM
N#Cc1cccc(C(=O)N2C[C@H](O)C[C@H]2C(=O)NCc2ccc(-c3cnco3)cc2)c1	von Hippel-Lindau disease tumor suppressor, with elongin B, C (VHL, Homo sapiens, UniProt P40337)	binding, fluorescence polarization		1% DMSO, with: FAM-HIF1α peptide tracer	47300 ± 1300 nM
NS(=O)(=O)c1ccc(Cc2c(-c3ccc(F)c(C#CC4CC4)c3)nn(-c3nc(C(=O)O)cs3)c2CC2CC2)cc1F	L-lactate dehydrogenase A chain (LDHA, Homo sapiens, UniProt P00338)	enzyme activity, inhibitor			7 nM
Clc1ccc(C2(c3ccc(-c4ccncc4)cc3)CCNCC2)cc1	Serine/threonine-protein kinase LATS1 (LATS1, Homo sapiens, UniProt O95835)	kinase activity, inhibitor, radiometric HotSpot		with: ATP 10 µM	530 nM

Excerpt of the above:
Compound	target	test	test system	setting	IC50
O=C(Nc1cccc(-c2nc3ccccc3s2)c1)c1ccc(N2CCOCC2)cc1	Moesin with CD44	MSN-CD44 interaction, inhibitor, TR-FRET		with: CD44	> 100000 nM
CN1C(=S)Cc2ccccc21	72 kDa type IV collagenase (MMP2, Homo sapiens, UniProt P08253)	inhibitor			103000 ± 10600 nM
CCn1c(=Cc2cccc[n+]2C)sc(=C2Sc3ccccc3N2C)c1=O	Heat shock 70 kDa protein 1A, with BAG2 (HSPA1A, Homo sapiens, UniProt P0DMV8)	Hsp70-Bag2 interaction, inhibitor, flow cytometry (FCPIA)		with: labeled Bag2 50 nM	39000 ± 4000 nM
O=C(/C=C/c1ccc(O)c(OC(F)(F)F)c1)C(CCOCCOC1CCCCO1)C(=O)/C=C/c1ccc(O)c(OC(F)(F)F)c1 (stereo not shown)	Amyloid-beta precursor protein, Aβ aggregates (APP, Homo sapiens, UniProt P05067)	binding, thioflavin T competition			650 nM
COc1ccc2[nH]cc(/C=C/c3ccc([N+](=O)[O-])cc3F)c2c1	IDO1	enzyme activity, inhibitor			> 100000 nM
